Published values from different studies.
A part holds a random share of what one study measured.

Set 1 — technique: protein binding microarray; molecule type: double-stranded DNA, one strand shown; medium: in vitro; concentration: not given; relative to: not given; reading: higher = stronger binding; endpoint: E-score
Target: Histone acetyltransferase KAT6A, both winged helices, GST fusion (KAT6A, Homo sapiens, UniProt Q92794, residues 1-181)
Setting: 8-mer, flanks averaged, mean of 2 arrays, mostly near background
Residues (chain): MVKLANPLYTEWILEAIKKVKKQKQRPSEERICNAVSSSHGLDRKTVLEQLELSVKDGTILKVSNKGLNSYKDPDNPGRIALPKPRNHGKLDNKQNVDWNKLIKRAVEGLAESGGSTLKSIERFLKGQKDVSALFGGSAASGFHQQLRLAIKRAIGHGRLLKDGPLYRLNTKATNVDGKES
ACCTTTCT: -0.0294
AAACGTTT: 0.0476
AAATTAGG: -0.0397
ATCGTACC: -0.0959
GCAATGAC: -0.117
CACGCAAA: 0.0702
GCAGAGAC: -0.0423
AGATCGGG: 0.0668
CCTCAGGA: -0.202
CCGGACAG: 0.087
CTCTACGC: -0.07
AATGTCAA: -0.0797
GACTTGGC: -0.233
CATGGTAG: -0.0619
CCCGGGAC: 0.271
ACGCTACG: 0.107
AACGATGG: -0.135
CTTTGCCC: -0.122

Set 2 — technique: RNA Bind-n-Seq; molecule type: RNA; medium: in vitro; concentration: 365 nM; relative to: no-protein control; reading: higher = stronger binding; endpoint: RBNS enrichment (R)
Target: RNA binding protein fox-1 homolog 2, RRM domain, GST-SBP tag (RBFOX2, Homo sapiens, UniProt O43251-10, residues 100-194)
Setting: natural RNA segment, single round, ends assumed
Constant ends, left off below: GGGAGUUCUACAGUCCGACGAUC … UGGAAUUCUCGGGUGCCAA
Target sequence (chain): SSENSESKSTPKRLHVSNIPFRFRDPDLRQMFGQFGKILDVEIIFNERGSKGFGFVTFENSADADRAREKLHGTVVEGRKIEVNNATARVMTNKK
CAUUUUUGUACACCCACAGUGGUACCUUUUACAGUCAGGUUUGGAUACUUUGCAGCUCAUCCAAAGAGACAUAACUAAACCCUAAACUCUUUUUUUGUUGUUGUUGUUGU: 0.431
GCUUGAGUCGGGGACAUGUUAACUUCGGAAAGAAGCCCCCGUCCCUGCCAUCCCAUAGAUUCUGAAGGGCUCCUCUCCUCCGGUCACGCUGACCAACUGCCAAGCUCGCU: 0.258
AGAAAACUUUUUAGAGAAAAACUAUUUAAAACUGUCAGAUCCUGACCAGCAAGCCCCCCCCCAGCCCCCCUUCCAAGUGACUCCGUGCCUUGAGUGUGUCUGCGUGUUUA: 0.828
AAAGGCCCUACCAGAGGGAACACGGCCUACUGAGCGGACAGAAUGAUGCCAAAAUAUUGCUUAUGUCUCUACAUGGUAUUGUAAUGAAUAUCUGCUUUAAUAUAGCUAUC: 0.365
AAGAGUCUGAGGAUUUCUUCUUACUGGCGUUCUUAAAGGUCUCUAAAAUUAAAGAACAAGAUGUGGUUUUUUGUUUAAGACGUUUUUAGUUUAUUUGUUGUUAAGUUAAA: 0.48
UGCUCAGAUCCAGUCCACGGGUCCAAGGAUGCUGGAUCCAAGGACUUCUCUUCCACAGUGGCCGGCCCACUCAAUCCCAGGGCCAUUGGCCUCACCCUCCCACCCCAUGU: 0.5
UUUGUUUGUUUAAUAGCACAAAUGCUUAUUUGUUAUCCAAAAACAACCUCCUUCUUAUCUGUGAUAAAUCUAUAGAAAGAAUUUAGCUGCAAGUGGACAAAGGAACAAGC: 0.463
UACAGGAGACAGUGGUUUUAUUCGGAUUGUCUUCUGUAAUAGGUUUCAAUAAAGCUGGAUGAACUUACGUUGUUGCUGCCUGUUUCCUGGCCUAUAAAGAGGGUUGUGUU: 4.5

Set 3 — technique: protein-binding microarray; molecule type: double-stranded DNA, one strand shown; medium: in vitro; concentration: 940 nM top; setting: 60-bp whole probe; added: salmon DNA 0.4 mg/ml; relative to: random background probes; reading: higher = stronger binding; endpoint: fitted relative affinity; constant ends, left off below: GCCTAGCAC … GTCTTGATTCGCTTGACGCTGCTG
Target: Interferon regulatory factor 5, full length, phosphomimetic (IRF5, Homo sapiens, UniProt Q13568-2, residues 1-514, S451D/S453D/S456D/S462D)
TTAGGACTGGGTCTGGGTTAGTGCTAG: -0.53 z-score
GAAGCTTCCTCTCTGCCACTGTGCTAG: 0.163 z-score
GACGGTATCGCCTTTCGGGACGTGCTA: 2.98 z-score
TTACATATGTTTTTCATTTTGTGCTAG: 0.946 z-score
GACGGACTGCTTATCATGACGTGCTAG: -0.202 z-score
GGTCCTCTCTCTATTCAGAGGTGCTAG: 0.944 z-score
TCAAAGCAAAAATGATTACTGTGCTAG: 0.0361 z-score
TTCGGACTGCTTCTCCTTTAGTGCTAG: 0.165 z-score
TCAGTTTTCTTTTCATTACTGTGCTAG: 2.4 z-score
GAGGATTTCAGACTGGAGACGTGCTAG: -0.619 z-score
TTAGAACTGGCGTATCGATTAGTGCTA: 0.838 z-score
TTATATTTCGGGACTGGATTAGTGCTA: 0.482 z-score
TTAGATTTCGGTACTGGATTAGTGCTA: 2.11 z-score
CTCAGTTTATTTATTTTTACGTGCTAG: 0.784 z-score
GACCATATCGGGTTTCGAGACGTGCTA: 1.63 z-score
TCAAGACTCATAATGGCTAGGTGCTAG: -0.251 z-score
GACGGTATCGGTTTCGGAACGTGCTAG: 11.2 z-score
GGGAGTGTCAATAATGACCACGTGCTA: 0.526 z-score
TTCCCTTTTAAGTTCTCTGAGTGCTAG: 1.41 z-score

Set 4 — technique: RNA Bind-n-Seq; molecule type: RNA; medium: in vitro; concentration: not given; relative to: input RNA pool; reading: higher = stronger binding; endpoint: bound/input enrichment
Target: RING finger protein unkempt homolog, zinc fingers 1-6, GST-SBP tag (UNK, Homo sapiens, UniProt Q9C0B0, residues 30-357)
Sequence of UniProt Q9C0B0 (30-357, looked up): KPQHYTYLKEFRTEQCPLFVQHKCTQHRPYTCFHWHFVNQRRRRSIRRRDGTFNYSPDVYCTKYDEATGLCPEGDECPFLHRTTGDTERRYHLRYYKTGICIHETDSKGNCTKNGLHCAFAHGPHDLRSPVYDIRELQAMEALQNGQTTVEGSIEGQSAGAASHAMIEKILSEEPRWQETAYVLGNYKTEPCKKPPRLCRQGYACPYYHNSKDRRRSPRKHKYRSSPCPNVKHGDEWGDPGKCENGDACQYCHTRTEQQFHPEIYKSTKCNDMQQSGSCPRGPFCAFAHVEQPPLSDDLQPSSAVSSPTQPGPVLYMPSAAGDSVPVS
Setting: RNA with constant flanks, human and mouse sites, ends assumed
Constant ends, left off below: GGGAGUUCUACAGUCCGACGAUC … CAACAGAGGAUUGAGCAUCA
GAUGUUCCACCUGCUCAGAUCUAUCCUCUCCCUAAGCAACAGAACCUUCCUAAGAGACCUACUAGUUUGCCUUUGAACACCAAAAAUUCAACAAAAGAACCCCGGCUAAAAUUUGGCAAC: 0.681 ratio
GUGGUAGCCAUUGGAACGCACUCAGGCAGGUGGUUUGUUCUGGAUGCAGAAACAAGAGAUCUGGUGUCAAUCCACACGGAUGGCAAUGAGCAGCUGUCUGUGAUGCGCUACUCAGUAGAU: 0.197 ratio
CUGGAGAGAAUAAAGAGCAGUCGCAAAUGAAGCUGCCCCACUCCCCCGGCACCCUGCAGCUUUAGUUUACUAAACUAGAAGUCCUCAUAGUUUAAAAUGGCCUCAGCAGGCCUAGUGUAU: 23 ratio
CUGAGCAGAACCAGCCUAAAAUUACAAGAGAAAGCUUCAGAAAGUGACGCAGAAAUCAAAGACAUGAAAGAGACCAUAUUUGAAUUGGAAGACCAGGUGGAGCAGCAUCGCGCCGUCAAG: 0.305 ratio
AAGAACUUGGCCCUCAUGACACAUAUAACAACUGACAUGGAAGAUGGACCCAUUAUUAAGUUAGCUGGGAACUUGGGAGUAGAAGAUGUGAAUUUAUUAUGUGGAGAAGAGCUCUCUUAC: 0.335 ratio
CGGAGUCGGGAGGCUGAGUGUUCAUUCCAGCAUGUCGGAAGGGGAGUCCCAAACAGUAGUCAGCAGUGGCUCAGACCCAAAGGUAGAAUCCUCAUCUUUAGCUCCUGGCCUGACUUCUGU: 0.163 ratio
UAAGGACUUCCCAGUGGUCUCAUGGUGACAACUGUCCCUCCUUUGAGUGAAGCCACAGAUGCCAGGCAGGUUCUAUUCUCUGCUACAGGCUAUGCCCUAGACGCUCUUGAGUAACUUUAG: 0.25 ratio
UCUCUUCUCUUAAGUUAUGGUGCAGACCCAACACUGCUCAAUUGUCACAAUAAAAGUGCUAUAGACUUGGCUCCCACACCACAGUUAAAAGAAAGAUUAGCAUAUGAAUUUAAAGGCCAC: 6.11 ratio

Set 5 — technique: RNAcompete; molecule type: RNA; medium: in vitro; concentration: 20 nM; setting: 7-mer, probes averaged, single round; relative to: mean of 7-mers; reading: higher = stronger binding; endpoint: 7-mer Z-score
Target: PABPC1L2, full length, GST fusion (mouse, UniProt A0ABA7IW68)
Construct (chain): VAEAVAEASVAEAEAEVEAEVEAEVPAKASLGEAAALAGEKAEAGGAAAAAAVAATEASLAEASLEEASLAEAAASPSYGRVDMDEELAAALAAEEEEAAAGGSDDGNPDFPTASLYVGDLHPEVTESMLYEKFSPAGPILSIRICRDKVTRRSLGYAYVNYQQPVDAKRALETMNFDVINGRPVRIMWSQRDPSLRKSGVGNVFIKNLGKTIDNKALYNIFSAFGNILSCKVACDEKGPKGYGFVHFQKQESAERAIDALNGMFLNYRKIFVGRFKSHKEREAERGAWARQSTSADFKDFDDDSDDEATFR
UAGUCAU: -0.273
CUUAUUU: -0.318
GACCGGA: -0.188
ACGGAAG: 0.126
UAGAACU: 0.0877
GACGGUU: -0.282
CCUAGUA: -0.226
GUACGCU: -0.208
UGUAUAG: -0.197
GAACGGC: 0.0442
CAAGCCC: -0.327
AGAAGCG: -0.0772
GAAGUGG: 0.14
UAAUUCA: -0.144
AAAACUU: 3.73
AGAAGUA: -0.11
ACGUCCA: -0.0283
AGGAACG: 0.151

For quick reference, copied from above (set 5):
UAGAACU: 0.0877
GACGGUU: -0.282
CCUAGUA: -0.226
GUACGCU: -0.208
